{"data": "Results from different studies", "note": "Compare with care: the assays were run in different laboratories. “And” joins repeats or separate records; there may be more than shown. ± marks the error that the study gave."}
{"Structure (SMILES)": "Cc1cc(C)c(CNC(=O)c2cc(Cl)c3c(c2C)O[C@@](C)([C@H]2CC[C@H](N(C)C)CC2)O3)c(=O)[nH]1", "test": "refers to: Alopecia", "test system": "human patients", "setting": "oral, 200 mg once daily, 1 day onset day 14", "endpoint": "patients with TEAE", "result": "4.2%"}
{"Structure (SMILES)": "CCCCCCOC(=O)NC(=N)c1ccc(NCc2nc3cc(C(=O)N(CCC(=O)OCC)c4ccccn4)ccc3n2C)cc1", "test system": "human", "setting": "oral, 75 mg, compound alone", "endpoint": "participants with TEAE dry throat", "result": "4.2%"}
{"Structure (SMILES)": "O=C(Nc1nc2cccc(-c3ccc(CN4CCS(=O)(=O)CC4)cc3)n2n1)C1CC1", "test system": "rheumatoid arthritis patients", "setting": "oral, 75 mg once daily, 4 weeks, TEAE regardless of relatedness", "endpoint": "patients with upper abdominal pain", "result": "0%"}
{"Structure (SMILES)": "CC[C@H](C)CCCCC(=O)N[C@@H](CCN)C(=O)N[C@H](C(=O)N[C@@H](CCN)C(=O)N[C@H]1CCNC(=O)[C@H]([C@@H](C)O)NC(=O)[C@H](CCN)NC(=O)[C@H](CCN)NC(=O)[C@H](CC(C)C)NC(=O)[C@@H](Cc2ccccc2)NC(=O)[C@H](CCN)NC1=O)[C@@H](C)O", "test system": "human, normal renal function, urine", "setting": "intravenous, 0.75 mg/kg, 0-24 h, arithmetic mean", "endpoint": "urinary excretion", "result": "1.67%"}
{"Structure (SMILES)": "COc1c(N2C[C@@H]3CCCN[C@@H]3C2)c(F)cc2c(=O)c(C(=O)O)cn(C3CC3)c12", "test system": "healthy volunteers", "setting": "oral, 400 mg single dose, day 5, 0.25 h", "endpoint": "QTcI change from baseline", "result": "-6.5 ms"}
{"Structure (SMILES)": "Cc1c(Cl)c(C)[n+]([O-])c(Cl)c1-c1noc(-c2cc(O)c(O)c([N+](=O)[O-])c2)n1", "test": "refers to: Belching", "test system": "healthy Chinese subjects", "setting": "oral, 100 mg, 4 days", "endpoint": "adverse drug reaction incidence", "result": "0%"}
{"Structure (SMILES)": "CNC(=O)c1ccc(-c2cnc3ncc(Cc4ccc5ncccc5c4)n3n2)cc1F", "test": "refers to: Insomnia, all grades", "test system": "cancer patients", "setting": "oral, dose not given, dose escalation, any causality", "endpoint": "patients with adverse event", "result": "11%"}
{"Structure (SMILES)": "COc1nnc2ccc(N3CCC(c4ccc(OCCN5CCN(C)C(=O)[C@H]5C)cc4)CC3)nn12", "test system": "human, plasma", "setting": "oral, 2 mg once daily, multiple dose, monotherapy", "endpoint": "terminal half-life", "result": "8.75 h"}
{"Structure (SMILES)": "CCCOc1ccc([C@H]2CNC(=O)N2c2ccc3[nH]cnc3c2)cc1", "test system": "human volunteers fed, plasma", "setting": "oral tablet, 200 mg single dose, crossover, geometric mean", "endpoint": "AUC(0-12h)", "result": "2.19 µg·h/mL"}
{"Structure (SMILES)": "O=C(Nc1cnccc1Cl)N1CCN(Cc2ccc3c(c2)OC(F)(F)O3)CC1", "test system": "healthy young men, plasma", "setting": "oral, 75 mg once daily, day 1", "endpoint": "AUC(0-24)", "result": "4.77 µg·h/mL"}
{"Structure (SMILES)": "COc1cccc(OC)c1-c1cc(C(=O)NC2(C(=O)O)C3CC4CC(C3)CC2C4)nn1-c1ccc(C(=O)N(C)CCCN(C)CCCN(C)C(=O)CN2CCN(CC(=O)[O-])CCN(CC(=O)[O-])CCN(CC(=O)[O-])CC2)cc1C(C)C.[177Lu+3] (stereo not shown)", "test system": "mouse, HT-29 xenograft, liver", "setting": "4 h post injection", "endpoint": "tissue uptake", "result": "2.7 %ID/g"}
{"Structure (SMILES)": "Oc1ccc(/C=C/c2cc(O)cc(O)c2)cc1", "test system": "rat, azoxymethane-injected, blood at sacrifice", "setting": "10 mg/kg", "endpoint": "alkaline phosphatase", "result": "287 IU/L and 342 IU/L and 416 IU/L"}
{"Structure (SMILES)": "CN(C)C(=N)N=C(N)N", "test": "refers to: haematoma", "test system": "healthy men", "setting": "oral, dose not given, 8 days, treatment-emergent, crossover trial", "endpoint": "subjects with adverse event", "result": "4.5%"}
{"Structure (SMILES)": "Cn1cc(Nc2nccc(-c3ccc4c(c3)CN(C3COC3)CC[C@H]4NC(=O)c3cn(C(C)(C)C)nn3)n2)cn1", "test system": "human, whole blood", "setting": "300 mg twice daily, day 7", "how to read": "relative to: pre-dose baseline", "endpoint": "lymphocyte count change", "result": "5.05%"}
{"Structure (SMILES)": "N#Cc1ccc(-c2cnc3ccc(-c4ccc(C(=O)N5CCOCC5)cc4)cn23)cc1", "test system": "healthy human volunteers", "setting": "oral, 10 mg, fed, time-averaged", "how to read": "relative to: placebo and baseline", "endpoint": "change in heart rate", "result": "2.4 bpm"}
{"Structure (SMILES)": "C1CCCC1.C1CCCC1.[Cl][W][Cl]", "test": "cyclic voltammetry", "test system": "acetonitrile", "how to read": "relative to: Ag/AgCl", "endpoint": "oxidation peak potential", "result": "0.47 V"}
{"Structure (SMILES)": "CCn1cc(C(=O)N2CCOCC2)c(=O)c2cc(NC3Cc4ccccc4C3)cnc21", "test system": "human male, fed, plasma", "setting": "oral, 900 mg twice daily, day 7, tablet, arithmetic mean", "endpoint": "half-life", "result": "5.85 h"}
{"Structure (SMILES)": "CNCc1ccc(-c2[nH]c3cc(F)cc4c3c2CCNC4=O)cc1", "test system": "human patients", "setting": "oral, 360 mg twice daily, all grades", "endpoint": "neutropenia incidence", "result": "12.5%"}
{"Structure (SMILES)": "N#CCc1ccccc1C#Cc1ccc(CCC(=O)O)cc1", "setting": "1 µM, Cerep high-content toxicity", "endpoint": "change in mitochondrial membrane potential", "result": "-5%"}
{"Structure (SMILES)": "C=CCN1CC(=O)N2[C@@H](Cc3ccc(O)cc3F)C(=O)N(Cc3cccc(N4CC(N5CCN(CC)CC5)C4)n3)C[C@@H]2N1C(=O)NCc1ccccc1", "test": "refers to: decreased appetite", "test system": "human advanced solid tumours", "setting": "concentration not given, dose escalation any grade", "endpoint": "treatment-related adverse events", "result": "13.9%"}
{"Structure (SMILES)": "N#Cc1ccc2c(c1)[C@H]1CCCN(C(=O)c3ccc4[nH]cnc4c3)[C@H]1C2", "test system": "human, female", "setting": "40 mg, day 7", "endpoint": "DHEA-S level", "result": "6.5 µmol/L"}
{"Structure (SMILES)": "CCN1CCN(Cc2ccc(Nc3ncc(F)c(-c4cc(F)c5nc6n(c5c4)[C@H](C)CCC6)n3)nc2)CC1", "test system": "human, plasma", "setting": "400 mg single dose, mean", "endpoint": "CL/F", "result": "33.7 L/h"}
{"Structure (SMILES)": "COc1cc2c3c(n(CCCN4CCOCC4)c(=O)c2cc1OC)-c1cc2c(cc1C3=O)OCO2", "test system": "beagle dog, female, plasma", "setting": "intravenous infusion, 50 mg/m^2, 1 h infusion, vehicle 2", "endpoint": "Vz", "result": "542 ± 213 L/m²"}
{"Structure (SMILES)": "C[Si](C)(C)O[Si](C)(C)C", "setting": "concentration not given, temperature rise 30 °C", "endpoint": "change in log KAW", "result": "1 log units"}
{"Structure (SMILES)": "CCCc1ccc(-c2ccc(-c3cc(F)c(F)c(F)c3)c(F)c2)cc1", "test system": "rat, fetus", "setting": "5000 ng/mL in perfusate, high dose, mixture of 21 LCMs", "endpoint": "fetal accumulation", "result": "0.53 ± 0.458 ng/g"}
{"Structure (SMILES)": "O=C(CCCCCCC(=O)Nc1ccccc1)NO", "test system": "FaSSIF", "setting": "literature solubility over dose", "endpoint": "dose-adjusted solubility", "result": "0.62 mL⁻¹"}
{"Structure (SMILES)": "Cc1nc(-c2cnc(NC(C)C)n(C)c2=O)ccc1Oc1ccnc(-c2cnn(C)c2)c1", "test system": "dog (Beagle, male), plasma", "setting": "intravenous, 1 mg/kg", "endpoint": "Vz", "result": "1.33 L/kg"}
{"Structure (SMILES)": "O=C(O)CSc1nnc(Br)n1-c1ccc(C2CC2)c2ccccc12", "test system": "KM mouse, chronic hyperuricaemia model", "setting": "dose not given, day 1", "endpoint": "body weight", "result": "24.4 g and 26.1 g and 26.5 g and 24.9 g and 27.4 g and 23.5 g"}
{"Structure (SMILES)": "C[C@@H]1OC(=O)[C@H](Cc2ccccc2)[C@H]1O", "test system": "laying hens, eggs", "setting": "oral, 10.7 mg/kg dry feed, 7 d", "endpoint": "share of total radioactive residue", "result": "32.2 % TRR"}
{"Structure (SMILES)": "CC(C)(C(=O)N1CCOc2c(C#N)cncc2C1)C(F)F", "test": "refers to: Insomnia", "test system": "human", "setting": "oral, 20 mg once daily, 14 days, multiple ascending dose", "endpoint": "subjects with adverse event", "result": "0%"}
{"Structure (SMILES)": "CCC(=O)N(CCC(c1ccc2c(c1)OCO2)c1ccccc1OC)Cc1ccccc1 (stereo not shown)", "test system": "female athymic nude mouse, blood", "setting": "i.p., 60 mg/kg twice daily, 14 days, group mean", "endpoint": "TP", "result": "4.25 g/dL"}
{"Structure (SMILES)": "CC[C@H](C)[C@H](NC(=O)[C@H](CO)NC(=O)[C@H](CCCNC(=N)N)NC(C)=O)C(=O)N[C@H]1CSSC[C@@H](C(=O)N[C@H](C(N)=O)[C@@H](C)O)NC(=O)[C@H](CCCNC(=N)N)NC(=O)[C@H](Cc2c[nH]cn2)NC(=O)[C@H](C)NC(=O)CNC(=O)[C@H](Cc2c[nH]c3ccccc23)NC(=O)[C@H](CC(=O)O)NC(=O)[C@H](CCC(N)=O)NC(=O)[C@H](Cc2c[nH]c3ccccc23)NC(=O)[C@H](C(C)C)NC1=O", "test": "isocratic RP-HPLC, C18", "test system": "32% acetonitrile, phosphate pH 7.4, 1% TFA", "setting": "25 °C", "endpoint": "retention factor", "result": "0.494 ± 0.013"}
{"Structure (SMILES)": "O=C(N[C@H](Cc1c[nH]c2ccccc12)C(=O)Nc1ccncc1)c1ccc(N2CCN(c3ccc(F)cc3F)CC2)cc1F", "test system": "Swiss Webster mouse, female, brain", "setting": "oral, 50 mg/kg, 8 h, 20% Kolliphor vehicle", "endpoint": "concentration", "result": "1.26 µM"}
{"Structure (SMILES)": "Cc1ccc([C@@H]2O[C@H](CO)[C@@H](O)[C@H](O)[C@H]2O)cc1Cc1ccc(-c2ccc(F)cc2)s1", "test system": "Japanese type 2 diabetes patients", "setting": "400 mg, day 15, 24 h urine collection", "how to read": "relative to: baseline", "endpoint": "urinary magnesium excretion change", "result": "11.1 mg"}
{"Structure (SMILES)": "CCOc1c([C@H](C)n2nc(C)c3c(N)ncnc32)cc(Cl)c(F)c1[C@@H]1CNC(=O)C1", "test system": "patients with B-cell malignancies, plasma", "setting": "oral, 20 mg, day 1, monotherapy", "endpoint": "Tmax", "result": "0.8 h"}
{"Structure (SMILES)": "COc1ccc2c(=O)n(C)c(-c3ccccc3)nc2c1", "test system": "Sprague-Dawley rat, male, liver", "setting": "oral, 30 mg/kg, 0.5 h", "how to read": "relative to: liver over plasma", "endpoint": "tissue/plasma ratio", "result": 39.8}
{"Structure (SMILES)": "CC1(C)CC[C@]2(NC(=O)C(C)(F)F)CC[C@]3(C)[C@H](C(=O)C=C4[C@@]5(C)C=C(C#N)C(=O)C(C)(C)[C@@H]5CC[C@]43C)[C@@H]2C1", "test system": "human, plasma", "setting": "oral, 150 mg, day 24 predose, geometric mean", "endpoint": "trough plasma concentration", "result": "36.9 ng/mL"}
{"Structure (SMILES)": "Cl.[2H]C([2H])([2H])CC(=O)c1cnc(NC(=O)C2CC2)cc1Nc1cccc(-c2ncn(C([2H])([2H])[2H])n2)c1OC", "test": "geometric mean", "test system": "human", "setting": "oral, 20 mg twice daily, day 7, fed, liquid, multiple dose", "endpoint": "elimination rate constant", "result": "2.5e-05 s⁻¹"}
{"Structure (SMILES)": "O=C(O)C[C@H](O)C[C@H](O)/C=C/c1c(C2CC2)nc2ccccc2c1-c1ccc(F)cc1", "test system": "OATP1B1/1B3 humanized mouse, plasma", "setting": "oral, 5 mg/kg, geometric mean, together with: rifampin 20 mg/kg oral", "endpoint": "AUC(0-12h)", "result": "1720 nM·h"}
{"Structure (SMILES)": "CCc1nc(C(N)=O)c(Nc2ccc(N3CCC(N4CCN(C)CC4)CC3)c(OC)c2)nc1NC1CCOCC1", "test system": "Japanese patients, plasma", "setting": "oral, 20 mg, cycle 0 day -2, single dose, mean", "endpoint": "AUC(0-24)", "result": "0.242 µg·h/mL"}
{"note": "Repeated from above:"}
{"Structure (SMILES)": "C=CCN1CC(=O)N2[C@@H](Cc3ccc(O)cc3F)C(=O)N(Cc3cccc(N4CC(N5CCN(CC)CC5)C4)n3)C[C@@H]2N1C(=O)NCc1ccccc1", "test": "refers to: decreased appetite", "test system": "human advanced solid tumours", "setting": "concentration not given, dose escalation any grade", "endpoint": "treatment-related adverse events", "result": "13.9%"}
{"Structure (SMILES)": "N#Cc1ccc2c(c1)[C@H]1CCCN(C(=O)c3ccc4[nH]cnc4c3)[C@H]1C2", "test system": "human, female", "setting": "40 mg, day 7", "endpoint": "DHEA-S level", "result": "6.5 µmol/L"}
{"Structure (SMILES)": "CCN1CCN(Cc2ccc(Nc3ncc(F)c(-c4cc(F)c5nc6n(c5c4)[C@H](C)CCC6)n3)nc2)CC1", "test system": "human, plasma", "setting": "400 mg single dose, mean", "endpoint": "CL/F", "result": "33.7 L/h"}
